Experimental data gathered from unrelated publications.
Compare with care: the assays were run in different laboratories. Values joined by “and” are separate records of one study, mostly repeats; a detail may differ.
Target: MAP kinase-activated protein kinase 3 (MAPKAPK3, Homo sapiens, UniProt Q16644)
Sequence of UniProt Q16644 (whole entry, looked up): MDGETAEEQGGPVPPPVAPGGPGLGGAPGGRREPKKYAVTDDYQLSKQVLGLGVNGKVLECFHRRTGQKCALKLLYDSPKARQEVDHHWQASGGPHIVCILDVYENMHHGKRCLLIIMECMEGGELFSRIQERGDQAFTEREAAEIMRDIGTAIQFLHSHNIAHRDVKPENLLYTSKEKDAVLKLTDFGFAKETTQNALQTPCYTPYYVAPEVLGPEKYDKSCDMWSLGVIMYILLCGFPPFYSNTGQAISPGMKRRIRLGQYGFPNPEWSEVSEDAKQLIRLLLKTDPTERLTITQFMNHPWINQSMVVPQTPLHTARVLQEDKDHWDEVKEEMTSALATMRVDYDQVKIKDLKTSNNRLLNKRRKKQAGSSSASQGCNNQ

SMILES | test | system | setting | how to read | quantity | result
COc1c(OCCCN2CCOCC2)ccc2c1N=C(NC(=O)c1cnc(N)nc1)N1CCN=C21 | kinase activity, inhibitor |  | 1 µM | relative to: untreated control | remaining activity | 97%
CCn1cc(C(=O)O)c(=O)c2c(N)c(F)c(NC3CCCCC3)cc21 | kinase activity |  | 0.1 µM, with: ATP at Km |  | inhibition | -11.1%
CN1CCN(Cc2ccc(-c3ccc(CO[C@H]4CCC[C@@H]4NC(=O)c4cc(-c5cnn(C)c5)cnc4N)cc3)cc2)CC1 | enzyme activity, inhibitor |  | 0.1 µM |  | inhibition | 8%
Nc1ncc(-c2cc(-c3cnn(CC(F)(F)F)c3)ncc2F)nc1C(=O)NC1CNCC(F)C1 (centres unmarked) | enzyme activity |  | 1 µM | relative to: DMSO control | remaining activity | 103%
Cc1cccc(O[C@H]2CCC[C@@H](C(C)CNCc3ccncc3)C2)c1 (relative stereo) | enzyme activity, inhibitor |  | 1 µM |  | inhibition | 0%
O=C=[N][Ru-4]123([n]4c5ccc(O)cc5c5c6c(c7cc(F)c[n+]1c7c54)C(=O)NC6=O)[S+]1CC[S+]2CC[S+]3CC1 (centres unmarked) | enzyme activity |  | 100 nM, human enzyme, with: 10 µM ATP | relative to: untreated | remaining activity | 105%
NC(=O)[C@@H](O)C[C@H]1CCc2sc3ncnc(O[C@H]4CC[C@H](N5CCOCC5)CC4)c3c21 | enzyme activity, inhibitor |  | 10 µM |  | inhibition | 7%
COc1ccc(NC(=O)Nc2ccc3c(c2)C(=O)N(C(C)CO)CC(C)C(CN(C)Cc2ccc4c(c2)OCO4)O3)cc1 (centres unmarked) | kinase activity, KinaseProfiler |  | 0.03 µM, species human | relative to: control | remaining activity | 107%
C=CC(=O)Nc1cccc(-c2cnc3[nH]cc(C(=O)NC(C)(C)C)c3n2)c1 | kinase activity |  | 0.1 µM |  | inhibition | -1% and 4%
O=C(Cc1ccc(OCc2ccccc2)cc1)NC1(C(=O)O)CCN(C(=O)c2ccc(-c3cccc(Cl)c3)cc2)CC1 | enzyme activity, inhibitor |  | 10 µM |  | activity vs control | 108%
C=CC(=O)Nc1cc(-c2nn(C3CCN(CCNC(=O)[C@H](C)CCC45CC6CC(CC(C6)C4)C5)CC3)c3ncnc(N)c23)ccc1Oc1ccccc1 | inhibitor, KiNativ profiling | biochemical | 2 µM |  | inhibition | 18.2%
NC(=O)C[C@H]1CCc2sc3ncnc(O[C@H]4CC[C@H](N5CCOCC5)CC4)c3c21 | enzyme activity, inhibitor |  | 10 µM |  | inhibition | 2%
CN1CC[C@@H](COc2cnc(C#N)cc2-c2ccn3nc(NC(=O)C4CC4)cc3c2)C1 | enzyme activity, inhibitor |  | 1 µM |  | inhibition | -20%
CS(=O)(=O)Nc1cccc(-c2csc3cnc(Nc4ccc(N5CCN(CCCCCOc6cccc7c6C(=O)N(C6CCC(=O)NC6=O)C7=O)CC5)cc4)nc23)c1 (centres unmarked) | probe labelling, inhibitor, KiNativ chemoproteomics | MOLT-4 | 1 µM |  | inhibition | -9.4%
Cc1nc2c(F)cc(-c3nc(Nc4ccc(CNC(=O)CCCCCCC(=O)NO)cc4)ncc3F)cc2n1C(C)C | enzyme activity, inhibitor |  | 1 µM |  | inhibition | 14%
COCC12C(=O)NC3C4(C(OC)CC1O)C1CC5(O)C(OC)C(O)C(OC(C)=O)(C1C5OC(=O)c1ccccc1)C3(O)C(OC)C24 (centres unmarked) | kinase activity, inhibitor, ProQinase kinase profiling |  | 25 µM | relative to: control | remaining activity | 110% and 112%
CNC(=O)C[C@H](Cc1ccc(C#N)cc1)NC(=O)c1cc(-c2ccc(CN[C@H](C)c3ccc(C)cc3)o2)ccc1Cl | enzyme activity, inhibitor |  | 1 µM |  | activity vs control | 108%
